Assay results pooled from the literature.
Parts stem from different laboratories: compare values within a part only. Changes are numbered by the printed parent chain.

Series 1 — technique: universal PBM; molecule type: double-stranded DNA, one strand shown; matrix: in vitro; concentration: not given; reading: higher = stronger binding
Target: Sal-like protein 4, full length isoform B (SALL4, Homo sapiens, UniProt Q9UJQ4-2, residues 1-616)
Notes: 8-mer, flanks averaged, mean of replicates
`ACTCGGTA` gave an E-score of 0.0384.
For `AATGAACC`, the E-score was 0.0194.
`CAAGTCAG` has an E-score of -0.193.
`AAGACTTG` gave an E-score of 0.15.
`TAGAATGA` gave an E-score of 0.172.
The E-score of `GCTATAGA` is reported as 0.179.
For `AACCACGA`, the E-score was -0.0632.
`CTTTTAGC` gave an E-score of -0.0738.
With `ACTGGTCT` the E-score was -0.161.
The E-score of `CCGTTTAA` is reported as 0.045.
`CAAGAGTC` gave an E-score of 0.0623.
For `GCCTGCCC`, the E-score was -0.321.
`CTCGTGAC` has an E-score of -0.174.
For `ACCGTTTA`, the E-score was 0.0892.
The E-score of `CTCTCTAA` is reported as -0.123.
The E-score of `ATCGTGTA` is reported as 0.0867.
`AACCCTAC` has an E-score of -0.115.
The E-score of `AAGGACGT` is reported as 0.214.
`GCTCTGTA` has an E-score of 0.031.

Series 2 — target: CCND3, cyclin fold, Cln2 fusion (human); technique: yeast growth competition, sequencing; matrix: yeast; notes: weak parent motif; baseline: not given; reading: higher = stronger binding
Parent: CDC6 docking peptide (human); TLKGRRLVFDNQL; partner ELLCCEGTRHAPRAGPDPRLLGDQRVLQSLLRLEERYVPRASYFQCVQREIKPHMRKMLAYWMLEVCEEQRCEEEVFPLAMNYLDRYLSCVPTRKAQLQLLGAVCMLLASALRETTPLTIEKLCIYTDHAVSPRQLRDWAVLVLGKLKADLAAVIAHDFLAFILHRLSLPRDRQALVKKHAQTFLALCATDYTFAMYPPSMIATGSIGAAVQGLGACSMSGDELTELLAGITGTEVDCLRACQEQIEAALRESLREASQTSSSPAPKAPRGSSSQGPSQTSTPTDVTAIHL
`V8R`: “normalised enrichment score” 0.147.
Under “normalised enrichment score”, `F9H` is recorded as 0.0888.
`R5Y`: “normalised enrichment score” 0.0951.
`F9L`: “normalised enrichment score” 0.298.
`V8W`: “normalised enrichment score” 0.118.
`R6H`: “normalised enrichment score” 0.123.
`V8G` — result for “normalised enrichment score”: 0.134.
Under “normalised enrichment score”, `R5A L7A` is recorded as 0.0394.
Under “normalised enrichment score”, `Q12L` is recorded as 0.165.
For `L13C`, “normalised enrichment score” read 0.155.
Under “normalised enrichment score”, `R5D` is recorded as 0.00583.
`Q12E` — result for “normalised enrichment score”: 0.0502.
For `L2Q`, “normalised enrichment score” read 0.0997.
For `L13A`, “normalised enrichment score” read 0.139.
Under “normalised enrichment score”, `R6W` is recorded as -0.0285.
For `G4Q`, “normalised enrichment score” read 0.154.
`L13M`: “normalised enrichment score” 0.106.
For `R5I`, “normalised enrichment score” read 0.0373.

Series 3 — technique: protein binding microarray; molecule type: double-stranded DNA, one strand shown; matrix: in vitro; concentration: not given; baseline: not given; reading: higher = stronger binding
Target: Histone acetyltransferase KAT6A, winged helix 1, GST fusion (KAT6A, Homo sapiens, UniProt Q92794, residues 1-85)
Notes: 8-mer, flanks averaged, mean of 2 arrays, mostly near background
Construct (chain): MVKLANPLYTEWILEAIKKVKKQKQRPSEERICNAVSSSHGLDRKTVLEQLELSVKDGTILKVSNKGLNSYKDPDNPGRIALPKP
`CTGCTTCC` has an E-score of -0.00115.
`CCAGCCTA` has an E-score of -0.236.
`CCTTGGTC` gave an E-score of -0.0732.
For `ATAGATTG`, the E-score was -0.129.
`ATCTTCTA` gave an E-score of -0.0677.
The E-score of `ATGGCCAA` is reported as -0.195.
The E-score of `ATCCTATA` is reported as -0.118.
`AGCCTGTC` gave an E-score of 0.0184.
`AGGCCTGG` gave an E-score of -0.147.
`AGTGTAGG` gave an E-score of -0.207.
For `AACACCGC`, the E-score was 0.244.
`AATCACAG` gave an E-score of -0.272.
For `GGCGGTTA`, the E-score was 0.268.
With `ATAGCGAG` the E-score was 0.0836.
`GGGTCTGA` has an E-score of 0.0395.
The E-score of `GCAAACTA` is reported as -0.243.
The E-score of `CCAATCGG` is reported as -0.00221.
With `AAACAAGG` the E-score was -0.133.
The E-score of `CTTCCTCC` is reported as -0.0888.
With `CCGTATTA` the E-score was 0.302.
`ACGCGCGT` has an E-score of 0.449.
For `CGCTGTCA`, the E-score was 0.0519.
The E-score of `CAGTCGGA` is reported as 0.0101.
`GTTGTCCA` gave an E-score of -0.16.
`AAAAAAAT` gave an E-score of -0.186.

Series 4 — technique: protein-binding microarray; molecule type: double-stranded DNA, one strand shown; matrix: in vitro; concentration: not given; reading: higher = stronger binding
Target: Max-binding protein MNT, bHLH-zipper, MAX partner unstated (MNT, Homo sapiens, UniProt Q99583, residues 220-300)
Notes: k-mer, scored over probes, only values ≥0.25
Construct (chain): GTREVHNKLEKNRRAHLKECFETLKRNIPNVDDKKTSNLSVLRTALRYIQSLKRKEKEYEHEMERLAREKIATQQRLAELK
With `ACCACGAG` the E-score was 0.415.
`GCACGCCC` gave an E-score of 0.32.
With `GCGTGCAA` the E-score was 0.412.
For `GTGCAACA`, the E-score was 0.271.
The E-score of `ACATGCGT` is reported as 0.446.
`AAGCACAT` gave an E-score of 0.358.
The E-score of `CATGGCCA` is reported as 0.253.
`GCGCCGCA` gave an E-score of 0.292.
`CGTGTACA` has an E-score of 0.306.
`CAGCGTGC` gave an E-score of 0.414.
For `CGTGGTCC`, the E-score was 0.353.
`CCCACGCC` has an E-score of 0.364.
The E-score of `ATGGGGAA` is reported as 0.264.

A few entries again (series 4):
The E-score of `ATGGGGAA` is reported as 0.264.
With `GCGTGCAA` the E-score was 0.412.
For `CGTGGTCC`, the E-score was 0.353.
`CAGCGTGC` gave an E-score of 0.414.
`CCCACGCC` has an E-score of 0.364.
`GCGCCGCA` gave an E-score of 0.292.
The E-score of `CATGGCCA` is reported as 0.253.
The E-score of `ACATGCGT` is reported as 0.446.
